Experimental data pooled from the literature.
Protocols differ between the studies behind these lines. ± marks the error that the study gave.

SMILES | assay | test system | conditions | how to read | quantity | value
CC(=O)N([O-])CCCCCNC(=O)CCC(=O)N([O-])CCCCCNC(=O)CCC(=O)N([O-])CCCCCN.[89Zr+4] | – | human plasma | 3 d, 37 °C | – | intact complex | 97.8 ± 1%
CC(C)C[C@H](NC(=O)[C@@H](CCCCNC(=O)[C@@H](Cc1ccccc1)NC(=O)CCCCCCCNC(=O)CN1CCN(CC(=O)O)CCN(CC(=O)O)CCN(CC(=O)O)CC1)NC(=O)[C@H](Cc1ccc(O)cc1)NC(=O)[C@H](CO)NC(=O)[C@H](Cc1c[nH]c2ccccc12)NC(=O)[C@H](Cc1c[nH]cn1)NC(=O)[C@@H]1CCC(=O)N1)C(=O)N[C@@H](CCCNC(=N)N)C(=O)N1CCC[C@H]1C(=O)NCC(N)=O [indium-111 labelled] | – | male athymic nude mice, DU-145 xenograft, urine | intravenous, dose not given, 1 h, together with: 10 µg unlabelled blocking peptide | – | urinary excretion | 83.5 ± 4.25%
CCCCN1C(=O)c2cccc3c(NCCCCCCCCCCN4CCOCC4)ccc(c23)C1=O | – | ethylene glycol | – | – | absorption maximum | 449 nm
C/C(N)=N/C(=N\S(=O)(=O)c1ccc(C(F)(F)F)cc1)N1C[C@H](c2ccccc2)C(c2ccc(Cl)cc2)=N1 | – | beagle dog, plasma | oral, 6 mg/kg | – | half-life | 8 h
COc1cc(/C=C2\CNC/C(=C\c3cc(Cl)c(O)c(OC)c3)C2=O)cc(Cl)c1O | MTT | BV-2, mouse | 3.75 to 60 µM, 24 and 48 h | – | cytotoxicity | not toxic
CC(C)(O)c1ncc([S@](N)(=O)=NC(=O)Nc2c3c(cc4c2CCC4)CCC3)s1 | measured: nervous system disorders | healthy human subjects | oral, dose not given, all active doses | – | share of subjects with TEAEs | 31%
CCCC[C@H](NC(=O)CCCCCCCNC(=O)CN1CCN(CC(=O)O)CCN(CC(=O)O)CC1)C(=O)N[C@H]1CC(=O)NCCCC[C@@H](C(N)=O)NC(=O)[C@H](Cc2c[nH]c3ccccc23)NC(=O)[C@H](CCCNC(=N)N)NC(=O)[C@@H](Cc2ccccc2)NC(=O)[C@H](Cc2c[nH]cn2)NC1=O [fluorine-18 labelled] | – | C57 mice, B16/F10 melanoma, urine | intravenous, 0.37 MBq, 2 h | – | urinary excretion | 75.77 ± 0.75%
O=C(Nc1cnccc1-c1ccc([18F])nc1)c1ccnc(NC(=O)C2CC2)c1 | – | FVB/NJ mice, both sexes, brain | intravenous, 25 min, median, P-gp inhibitor pretreatment, together with: tariquidar 15 mg/kg iv | – | SUV | 0.194
CNC(=O)C1CCCN(C(=O)C2CC3CCC2N3C(=O)[C@@H]2C[C@@H](O)CN2C(=O)NCc2cccc(Cl)c2F)C1 (mixture of isomers) | – | rat liver microsomes | – | – | intrinsic clearance | 4.4 µL/min/mg
CC[C@H](C)[C@H](NC(=O)C[C@H](NC(=O)CN1CCN2CCN(CC1)CC(=O)[O][Al]([18F])[O]C(=O)C2)C(=O)O)C(=O)N[C@H]1CCc2cccc3c2N(C1=O)[C@H](C(=O)NCc1cn[nH]n1)C3 | PET | C57BL/6J mice MC-38 tumour | 30 min post injection, together with: anti-PD-1 antibody treatment | – | tumour to muscle ratio | 7.46
O=C(NCCN1C(=O)CCC1=O)[O][Pt]12([O]C(=O)NCCN3C(=O)CCC3=O)([NH][C@@H]3CCCC[C@H]3[NH]1)[O]C(=O)C(=O)[O]2 | AUC-based, measured: platinum | BALB/c mice, CT26 tumour | iv | baseline: tumour over liver | tumour to organ ratio | 0.1
COc1cccc(OC)c1-c1cc(C(=O)NC2(C(=O)O)C3CC4CC(C3)CC2C4)nn1-c1ccc(C(=O)N(C)CCOCCOCCN(C)C(=O)[C@H](CCCCNC(=O)[C@H](CC(C)C)NC(=O)C2OC2C(=O)O)NC(=O)CN2CCN(CC(=O)[O-])CCN(CC(=O)[O-])CCN(CC(=O)[O-])CC2)cc1C(C)C.[177Lu+3] (mixture of isomers) | – | mouse, HT-29 xenograft | 168 h post injection, biodistribution | baseline: tumour over liver uptake | tumour-to-liver ratio | 2.99
COc1ccc2c(c1)CCn1c[n+]3c(c1-2)-c1ccc(OC)cc1CC3 | – | female NSG mice, blood | 6 mg/kg, day 7, 5 days per week | – | MCHC | 32.9 ± 0.88 g/dL
CCn1c(=O)c(-c2cc(NC(=O)Nc3ccccc3)c(F)cc2Br)cc2cnc(N)cc21 | – | human plasma | 4000 ng/mL, 1 months, -20 °C, high QC | – | long-term stability accuracy | -2.77%
O=Cc1c(O)c(C=O)c(O)c(C=O)c1O | chemical stability, HPLC-MS | borate buffered saline | pH 10.2, no N-acetyl-lysine | – | degradation rate constant | 0 h⁻¹
CCCCN1C(=O)c2cccc3c(NCCN4CCOCC4)ccc(c23)C1=O | – | water | pH 6.0 | – | absorption maximum | 441 nm
Cc1noc(C)c1Cn1cc(N2C(=O)CN(Cc3cccc(OS(=O)(=O)O)c3)C2=O)cn1 | – | Sprague-Dawley rat, male | oral, 10 mg/kg of parent drug, 0.25 h | – | plasma concentration | 2240 ng/mL
C=C(NC(=O)c1csc(-c2nc3c(cc2O)-c2nc(cs2)C(=O)NC(C(C)O)C(=O)NC(=C(C)OC)c2nc(cs2)C(=O)NC2c4nc(cs4)C(=O)NC(COC(=O)c4c5c6c(cccc6n4O)COC(=O)C(OC4CC(C)(O)C(N(C)C)C(C)O4)C2OC5)c2nc-3cs2)n1)C(N)=O (stereo not drawn) | – | Sprague-Dawley rat, female, plasma | intravenous infusion, 18 mg/kg single dose | – | MRT(0-last) | 1.84 h
CC[C@H](C)[C@H](NC(=O)[C@H](CCCCN)NC(=O)[C@H](CCC(=O)O)NC(=O)[C@H](CO)NC(=O)[C@H](Cc1ccccc1)NC(=O)[C@H](CC(C)C)NC(=O)[C@H](CCC(N)=O)NC(=O)[C@H](CO)NC(=O)[C@H](C)NC(=O)[C@H](CCCCN)NC(=O)[C@H](Cc1c[nH]cn1)NC(=O)[C@H](Cc1c[nH]c2ccccc12)NC(=O)[C@H](CCC(N)=O)NC(=O)[C@H](CCCCN)NC(=O)[C@H](CCCCN)NC(=O)[C@H](CC(C)C)NC(=O)CNC(=O)[C@H](C)NC(=O)[C@@H](NC(=O)[C@H](CO)NC(=O)[C@@H](N)CCSC)C(C)C)C(=O)N[C@@H](CO)C(=O)NCC(=O)N[C@@H](C)C(N)=O | circular dichroism | aqueous TFE | 50 µM, pH 7.4, 20 °C | – | TFE midpoint | 2.69 ± 0.05 M
O=C(Nc1cnccc1-c1ccc([18F])cc1)c1ccnc(NC(=O)C2CC2)c1 | ex vivo gamma counting | FVB/NJ mice, both sexes, stomach | intravenous, 120 min, mean, P-gp inhibitor pretreatment, together with: tariquidar 15 mg/kg iv | – | SUV | 1.23
COC1C=COC2(C)Oc3c(C)c(O)c4c(c3C2=O)C2=NC3(CCN(CC(C)C)CC3)NC2=C(NC(=O)C(C)=CC=CC(C)C(O)C(C)C(O)C(C)C(OC(=O)Nc2cccnn2)C1C)C4=O (stereo not drawn) | – | CD-1 mouse female, plasma | intravenous, 5 mg/kg | – | clearance | 2.27 mL/min/kg
Cc1c(Cc2ccc(F)c(OC(C)C(=O)O)c2)c2ccc(C(=O)NC(C)c3ccc(C(C)(C)C)cc3)cc2n1CC(C)C (stereo not drawn) | metabolic stability | mouse, liver microsomes | – | – | half-life | 0.833 h
O=C([O-])CN1CCN(CC(=O)[O-])CCN(C(CO)C(O)CO)CCN(CC(=O)[O-])CC1.[Dy+3] (stereo not drawn) | – | cynomolgus monkey, cerebellum | dose not given, day 5 | – | lanthanide tissue concentration | 0.033 ± 0.006 nmol/g
CN1CCC[C@]1(C)/C=C/S(=O)(=O)NC(=O)Nc1c2c(cc3c1C(O)CC3)CCC2 (stereo partly drawn) | – | human, plasma | oral, 50 mg twice daily of parent drug, day 1, metabolite of dosed drug | – | AUC(0-tau) | 60100 ng·h/mL
CC(C)C[C@H](NC(=O)[C@H](CCCNC(=N)N)NC(=O)[C@H](Cc1ccccc1)NC(=O)[C@H](Cc1ccccc1)NC(=O)[C@@H](NC(=O)[C@H](CO)NC(=O)[C@H](CO)NC(=O)[C@H](CC(=O)O)NC(=O)[C@H](CO)NC(=O)[C@H](CO)NC(=O)[C@H](CC(=O)O)NC(=O)[C@H](CO)NC(=O)[C@H](CO)NC(=O)[C@H](CC(=O)O)NC(=O)[C@H](CO)NC(=O)[C@H](CO)NC(=O)[C@H](CC(=O)O)NC(=O)[C@H](CO)NC(=O)[C@H](CO)NC(=O)[C@H](CC(=O)O)NC(=O)[C@H](CO)NC(=O)[C@H](CO)NC(=O)[C@H](CC(=O)O)NC(=O)[C@H](CO)NC(=O)[C@H](CO)NC(=O)[C@H](CC(=O)O)NC(=O)[C@H](CO)NC(=O)[C@H](CO)NC(=O)[C@@H](N)CC(=O)O)[C@@H](C)O)C(=O)N[C@@H](Cc1ccccc1)C(=O)N[C@@H](CC(N)=O)C(=O)N[C@@H](CCCNC(=N)N)C(=O)N[C@@H](C)C(=O)N[C@@H](CCCCN)C(=O)N[C@@H](CCCNC(=N)N)C(=O)N[C@@H](Cc1c[nH]cn1)C(=O)N[C@@H](Cc1c[nH]cn1)C(=O)NCC(=O)N[C@@H](Cc1ccc(O)cc1)C(=O)N[C@@H](CCCCN)C(=O)N[C@@H](CCCNC(=N)N)C(=O)N[C@@H](CCCCN)C(=O)N[C@@H](Cc1ccccc1)C(=O)N[C@@H](Cc1c[nH]cn1)C(=O)O | HPLC-UV | human saliva | 2 h, 37 °C, together with: initial 1 mg/mL | – | peptide concentration | 0.988 mg/mL
CCCCN1C(=O)c2cccc3c(NCCCCCCN4CCOCC4)ccc(c23)C1=O | – | acetonitrile | – | – | absorption maximum | 433 nm
CN1CCC[C@]1(C)/C=C/S(=O)(=O)NC(=O)Nc1c2c(cc3c1CC(O)C3)CCC2 (stereo partly drawn) | – | human, plasma | oral, 12.5 mg twice daily of parent drug, metabolite of dosed drug | baseline: day 14 over day 1 | AUC(0-tau) accumulation ratio | 2.6

For quick reference, copied from above:
SMILES | assay | test system | conditions | how to read | quantity | value
CCCCN1C(=O)c2cccc3c(NCCN4CCOCC4)ccc(c23)C1=O | – | water | pH 6.0 | – | absorption maximum | 441 nm
